{"data": "Measured values gathered from unrelated publications", "note": "A part holds a random share of what one study measured."}
{"data": "Block 1", "target": "Sal-like protein 4, full length isoform B (SALL4, Homo sapiens, UniProt Q9UJQ4-2, residues 1-616)", "technique": "universal PBM", "molecule type": "double-stranded DNA, one strand shown", "matrix": "in vitro", "concentration": "not given", "setting": "8-mer, flanks averaged, mean of replicates", "reading": "higher = stronger binding"}
{"Strand": "CACCACGG", "E-score": -0.278}
{"Strand": "AGCAACGA", "E-score": 0.032}
{"Strand": "ATCCAGAC", "E-score": -0.107}
{"Strand": "GATTGAGC", "E-score": 0.0226}
{"Strand": "ATTCTAGA", "E-score": 0.179}
{"Strand": "CTGACCTC", "E-score": -0.202}
{"data": "Block 2", "target": "Interferon regulatory factor 5, full length, phosphomimetic (IRF5, Homo sapiens, UniProt Q13568-2, residues 1-514, S451D/S453D/S456D/S462D)", "technique": "protein-binding microarray", "molecule type": "double-stranded DNA, one strand shown", "matrix": "in vitro", "concentration": "940 nM top", "setting": "60-bp whole probe", "with": "salmon DNA 0.4 mg/ml", "relative to": "random background probes", "reading": "higher = stronger binding", "all sequences stand within": "GCCTAGCAC … GTCTTGATTCGCTTGACGCTGCTG"}
{"Strand": "GCTTCCTCACCTGATGCCTCGTGCTAG", "fitted relative affinity [z-score]": 0.134}
{"Strand": "TTTGGACTGCTTTTCCTTTAGTGCTAG", "fitted relative affinity [z-score]": -0.000931}
{"Strand": "GACGGTCTCGGTATCGGGAGGTGCTAG", "fitted relative affinity [z-score]": 4.66}
{"Strand": "GACGGTCGCGGTCTCGGGACGTGCTAG", "fitted relative affinity [z-score]": 0.473}
{"Strand": "GACGGACTCGACTTTCGGGACGTGCTA", "fitted relative affinity [z-score]": 0.414}
{"data": "Block 3", "target": "Protein C-ets-1 (ETS1, Homo sapiens, UniProt P14921, residues 1-441, full length assumed)", "technique": "protein-binding microarray", "molecule type": "double-stranded DNA, one strand shown", "matrix": "in vitro", "concentration": "not given", "setting": "k-mer, scored over probes, only values ≥0.25", "reading": "higher = stronger binding", "Target sequence (chain)": "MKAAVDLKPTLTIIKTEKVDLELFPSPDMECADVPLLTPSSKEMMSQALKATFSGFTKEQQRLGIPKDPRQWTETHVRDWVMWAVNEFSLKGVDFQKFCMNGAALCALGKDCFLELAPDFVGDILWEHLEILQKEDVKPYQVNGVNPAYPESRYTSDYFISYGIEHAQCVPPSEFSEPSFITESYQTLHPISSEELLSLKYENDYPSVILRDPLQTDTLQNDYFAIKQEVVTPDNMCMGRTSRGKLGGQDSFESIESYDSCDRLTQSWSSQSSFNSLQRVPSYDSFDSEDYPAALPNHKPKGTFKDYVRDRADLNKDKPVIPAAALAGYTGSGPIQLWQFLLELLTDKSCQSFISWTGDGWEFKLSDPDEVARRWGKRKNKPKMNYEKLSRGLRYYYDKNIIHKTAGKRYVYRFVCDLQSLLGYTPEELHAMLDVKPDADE"}
{"Strand": "AACCCCGG", "E-score": 0.318}
{"Strand": "AAAACGGA", "E-score": 0.256}
{"Strand": "ACAGTTCC", "E-score": 0.312}
{"Strand": "CCGGAGGC", "E-score": 0.277}
{"Strand": "CATCCGGG", "E-score": 0.482}
{"Strand": "ACGGAAGA", "E-score": 0.405}
{"Strand": "AGGATACT", "E-score": 0.277}
{"data": "Mixed results"}
{"Molecule": "PhoQ, residues 284 288 289 292 302 303 SMMNNA", "target": "PhoP, residues 12 14 15 18 19 NIMAP (Escherichia coli, UniProt P23836)", "test": "Sort-seq, measured: YFP reporter", "system": "E. coli", "setting": "PhoQ-PhoP variant library, with: 10 µM Mg2+", "how to read": "relative to: high Mg2+ state, higher = stronger signaling", "quantity": "fold induction", "value": 1.13}
